Measurements of several laboratories.
Every numbered part comes from another study and shows a few of its results, in no order. Positions count from the first letter of the parent shown.

Set 1
Target: CCNB2, cyclin fold, Cln2 fusion (human)
Method: yeast growth competition, sequencing
Matrix: yeast
Setting: strong parent motif
Baseline: not given
Reading: higher = stronger binding
Parent: BRCA2 docking peptide (human); PSIKRNLLNEFDR
`S2V`: “normalised enrichment score” 2.49.
For `K4M`, “normalised enrichment score” read 2.05.
Under “normalised enrichment score”, `R5H` is recorded as -0.0449.
Under “normalised enrichment score”, `F11K` is recorded as 0.132.
For `E10I`, “normalised enrichment score” read 0.49.
Under “normalised enrichment score”, `S2W` is recorded as 1.53.
`L8P`: “normalised enrichment score” 0.0213.
Under “normalised enrichment score”, `L7I` is recorded as 0.971.
`P1V`: “normalised enrichment score” 3.76.
Under “normalised enrichment score”, `N6G` is recorded as -0.181.

Set 2
Target: Prothrombin, mature alpha-thrombin (F2, Homo sapiens, UniProt P00734)
Method: aptamer microarray, sandwich
Molecule type: DNA with 2'F-ANA
Matrix: in vitro
Concentration: 200 nM
Setting: whole 15-mer aptamer, many near background
Added: Cy3 exosite-II aptamer, 400 nM
Reading: higher = stronger binding
Oligonucleotide: GGTTGGTGTGGTTGG
For `2'F-ANA at 1 2 4 5 8 10 12 14`, “mean fluorescence intensity” read 45.4 a.u.
`2'F-ANA at 1 2 3 5 6 7 8 13` — result for “mean fluorescence intensity”: 54.5 a.u.
`2'F-ANA at 2 11 14 15` — result for “mean fluorescence intensity”: 127 a.u.
Under “mean fluorescence intensity”, `2'F-ANA at 1 2 3 4 5 6 7 10 11 12 14 15` is recorded as 49 a.u.
`2'F-ANA at 1 2 3 4 7 8 10 11 12 13` — result for “mean fluorescence intensity”: 64.3 a.u.
`2'F-ANA at 2 4 5 6 12 13`: “mean fluorescence intensity” 117 a.u.
For `2'F-ANA at 2 4 10 14`, “mean fluorescence intensity” read 76.1 a.u.
Under “mean fluorescence intensity”, `2'F-ANA at 2 3 4 5 7 13 14` is recorded as 54.5 a.u.
`2'F-ANA at 4 6 8 9 10 12 13 15`: “mean fluorescence intensity” 73.9 a.u.
`2'F-ANA at 1 2 3 4 5 8 10 11 15` — result for “mean fluorescence intensity”: 72.9 a.u.
`2'F-ANA at 1 2 3 4 7 9 14 15` — result for “mean fluorescence intensity”: 66.9 a.u.
Under “mean fluorescence intensity”, `2'F-ANA at 2 3 5 7 8 11 13 14` is recorded as 64.9 a.u.
`2'F-ANA at 1 2 3 4 7 8 10 11 13 15`: “mean fluorescence intensity” 59.5 a.u.
`2'F-ANA at 1 2 4 8 10 11 12 14` — result for “mean fluorescence intensity”: 49 a.u.
For `2'F-ANA at 2 3 4 5 6 7 8 9 14 15`, “mean fluorescence intensity” read 114 a.u.

Set 3
Target: PABPC1L2, full length, GST fusion (mouse, UniProt A0ABA7IW68)
Method: RNAcompete
Molecule type: RNA
Matrix: in vitro
Concentration: 20 nM
Setting: 7-mer, probes averaged, single round
Baseline: mean of 7-mers
Reading: higher = stronger binding
Target sequence (chain): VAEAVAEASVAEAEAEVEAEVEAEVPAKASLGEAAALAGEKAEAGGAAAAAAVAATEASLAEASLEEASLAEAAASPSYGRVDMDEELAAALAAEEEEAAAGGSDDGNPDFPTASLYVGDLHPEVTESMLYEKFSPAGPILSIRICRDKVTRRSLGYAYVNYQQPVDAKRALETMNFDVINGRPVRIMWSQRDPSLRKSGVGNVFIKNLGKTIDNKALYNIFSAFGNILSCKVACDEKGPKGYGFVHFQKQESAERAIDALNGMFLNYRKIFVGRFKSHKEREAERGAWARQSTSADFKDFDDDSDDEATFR
With `UACUAGU` the 7-mer Z-score was -0.197.
For `GCAUGUA`, the 7-mer Z-score was 0.0696.
With `UGGUGGG` the 7-mer Z-score was -0.106.
The 7-mer Z-score of `UCUACUA` is reported as -0.273.
`GGCGUCA` gave a 7-mer Z-score of 0.102.
The 7-mer Z-score of `ACCUUUC` is reported as -0.383.
`AUGGCCU` gave a 7-mer Z-score of -0.079.
With `UUAUGGU` the 7-mer Z-score was -0.0844.
For `ACAGUCU`, the 7-mer Z-score was -0.168.
With `GUUUAAU` the 7-mer Z-score was -0.289.
`AAUCCUC` has a 7-mer Z-score of -0.257.
`CGACCGG` gave a 7-mer Z-score of -0.103.
The 7-mer Z-score of `GGAGGUC` is reported as 0.215.
The 7-mer Z-score of `AUCACGC` is reported as -0.142.
The 7-mer Z-score of `UGACGGA` is reported as -0.0409.

Further values, each from its own experiment
`PhoQ, residues 284 288 289 292 302 303 SLSLLA` gave a fold induction of 47.2 (PhoP, residues 12 14 15 18 19 VHTVL (Escherichia coli, UniProt P23836); Sort-seq, measured: YFP reporter; E. coli; PhoQ-PhoP variant library, added: 10 µM Mg2+; baseline: high Mg2+ state, higher = stronger signaling).

Excerpt of the above (set 3):
`AAUCCUC` has a 7-mer Z-score of -0.257.
For `GCAUGUA`, the 7-mer Z-score was 0.0696.
